# Measured values collected from several papers.
# Lines come from different studies, so protocols differ.
# Organism: Klebsiella pneumoniae
Compound,test,test system,conditions,MIC
CN[C@H](CC(C)C)C(=O)N[C@H]1C(=O)N[C@@H](CC(N)=O)C(=O)N[C@H]2C(=O)N[C@H]3C(=O)N[C@H](C(=O)N[C@H](C(=O)O)c4cc(O)cc(O)c4-c4cc3ccc4O)[C@H](O)c3ccc(c(Cl)c3)Oc3cc2cc(c3O[C@@H]2O[C@H](CO)[C@@H](O)[C@H](O)[C@H]2O[C@H]2C[C@](C)(NCc3ccc(OCc4cn(CCCCC(=O)N[C@H](C(=O)N[C@@H](CCN)C(=O)N[C@H]5CCNC(=O)[C@H]([C@@H](C)O)NC(=O)[C@H](CCN)NC(=O)[C@H](CCN)NC(=O)[C@H](CC(C)C)NC(=O)[C@@H](CC(C)C)NC(=O)[C@H](CCN)NC5=O)[C@@H](C)O)nn4)c(OC)c3)[C@H](O)[C@H](C)O2)Oc2ccc(cc2Cl)[C@H]1O,broth microdilution,"ATCC 27736, cation-adjusted Mueller-Hinton broth","18 to 20 h, 37 °C, 0.002% polysorbate 80",16 µg/mL
CCCCCCCCCCCCCCCCCCn1cc(CN(CCC(=O)NCCN(CCC(=O)NCCN(CCC(=O)NCCN(C)C)CCC(=O)NCCN(C)C)CCC(=O)NCCN(CCC(=O)NCCN(C)C)CCC(=O)NCCN(C)C)CCC(=O)NCCN(CCC(=O)NCCN(CCC(=O)NCCN(C)C)CCC(=O)NCCN(C)C)CCC(=O)NCCN(CCC(=O)NCCN(C)C)CCC(=O)NCCN(C)C)nn1,,"ATCC 43816, LB broth",18 h,> 96 µg/mL
CC(=O)NC[C@H]1CN(c2ccc(N3CCN(C(=O)CN)CC3)c(F)c2)C(=O)O1,"microbial growth, broth dilution",ATCC27736,,> 128 µM
CC[C@H](C)[C@H](NC(=O)[C@H](CCC(N)=O)NC(=O)[C@H](Cc1ccccc1)NC(=O)[C@H](CC(N)=O)NC(=O)[C@H](CCCCN)NC(=O)[C@H](CC(C)C)NC(=O)[C@H](CCCNC(=N)N)NC(=O)[C@H](CCCCN)NC(=O)[C@H](CCCCN)NC(=O)[C@@H](NC(=O)[C@H](CO)NC(=O)[C@H](CCCCN)NC(=O)CNC(=O)[C@H](CC(C)C)NC(=O)[C@H](CCCCN)NC(=O)[C@H](CCCCN)NC(=O)[C@H](CC(C)C)NC(=O)[C@H](CCCCN)NC(=O)[C@H](CCCCN)NC(=O)[C@H](CCCNC(=N)N)NC(=O)[C@H](CC(C)C)NC(=O)CNC(=O)[C@@H](N)CCCNC(=N)N)[C@@H](C)CC)C(=O)NCC(=O)N[C@@H](Cc1ccccc1)C(=O)N[C@@H](CO)C(=O)N[C@H](C(=O)N1CCC[C@H]1C(=O)N[C@@H](Cc1ccccc1)C(=O)N[C@@H](C)C(=O)NCC(=O)O)C(C)C,broth microdilution,ATCC 43816,"16 h, 37 °C, cation-adjusted Mueller-Hinton broth",8 µg/mL
CC1(C)[C@H](NC(=O)/C(=N\OCC(=O)N2CCC[C@@H]2C(=O)O)c2nsc(N)n2)C(=O)N1OS(=O)(=O)O,agar dilution,"ATCC 700603, ESBL-producing",,> 64 µg/mL
CC[C@H](C)[C@@H]1NC(=O)[C@@H](CC(C)C)NC(=O)[C@H](CCN)NC(=O)[C@@H](NC(=O)[C@@H](CO)NC(=O)[C@@H](NC(=O)[C@H](CCN)NC(=O)c2ccc(-c3ccccc3)cc2)[C@@H](C)O)CCNC(=O)[C@H](CC(C)C)NC(=O)[C@H](CCN)NC(=O)[C@H](CCN)NC1=O,broth microdilution,"ATCC 13883, colistin-susceptible",,2 to 4 µg/mL
C=CCO/N=C(\C(=O)N[C@@H]1C(=O)N(OS(=O)(=O)O)C1(C)C)c1nsc(N)n1,agar dilution,"ATCC 700603, ESBL-producing",,32 µg/mL
CN[C@H](CC(C)C)C(=O)N[C@H]1C(=O)N[C@@H](CC(N)=O)C(=O)N[C@H]2C(=O)N[C@H]3C(=O)N[C@H](C(=O)N[C@H](C(=O)NCC(N)=O)c4cc(O)cc(O)c4-c4cc3ccc4O)[C@H](O)c3ccc(c(Cl)c3)Oc3cc2cc(c3O[C@@H]2O[C@H](CO)[C@@H](O)[C@H](O)[C@H]2O[C@H]2C[C@](C)(NCc3ccc(OCc4cn(CC(=O)N[C@H](C(=O)N[C@@H](CCN)C(=O)N[C@H]5CCNC(=O)[C@H]([C@@H](C)O)NC(=O)[C@H](CCN)NC(=O)[C@H](CCN)NC(=O)[C@H](CC(C)C)NC(=O)[C@@H](CC(C)C)NC(=O)[C@H](CCN)NC5=O)[C@@H](C)O)nn4)c(OC)c3)[C@H](O)[C@H](C)O2)Oc2ccc(cc2Cl)[C@H]1O,broth microdilution,"ATCC 27736, cation-adjusted Mueller-Hinton broth","18 to 20 h, 37 °C, 0.002% polysorbate 80",16 µg/mL
CCCCCCCCn1cc[n+](CCCCCCCCCCOc2cc(OCCCCCCCCCC[n+]3ccn(CCCCCCCC)c3)cc(OCCCCCCCCCC[n+]3ccn(CCCCCCCC)c3)c2)c1.[Br-].[Br-].[Br-],,ATCC 4352,,125 µM
CC[C@H]1OC(=O)[C@H](C)[C@@H](OC(=O)Cc2ccc(N)cc2)[C@H](C)[C@@H](O[C@@H]2O[C@H](C)C[C@H](N(C)C)[C@H]2O)[C@](C)(OC)C[C@@H](C)C(=O)[C@H](C)[C@@H](O)[C@]1(C)O,microbial growth,ATCC700603,,> 32 µg/mL
CC1(C)[C@H](NC(=O)/C(=N\OCC(=O)N2CCC(C(=O)O)CC2)c2csc(N)n2)C(=O)N1OS(=O)(=O)O,agar dilution,"16-14, ESBL-producing",,32 µg/mL
COc1cc(C(=O)Nc2ccc(C(=O)O)c(O)c2)ccc1NC(=O)c1ccc(NC(=O)[C@H](Cc2c[nH]nn2)NC(=O)c2ccc(NC(=O)/C(C)=C/c3ccc(O)cc3)cc2)cc1,broth microdilution,ciprofloxacin-sensitive,,32 µg/mL
CC[C@H]1OC(=O)[C@H](C)[C@@H](OC(=O)Cc2ccc3c(c2)OCO3)[C@H](C)[C@@H](O[C@@H]2O[C@H](C)C[C@H](N(C)C)[C@H]2O)[C@](C)(OC)C[C@@H](C)C(=O)[C@H](C)[C@@H](O)[C@]1(C)O,microbial growth,ATCC700603,,> 32 µg/mL
CCCCCCCC(=O)N[C@@H](CCN)C(=O)N[C@H](C(=O)N[C@@H](CCN)C(=O)N[C@H]1CCNC(=O)[C@H]([C@@H](C)O)NC(=O)[C@H](CCN)NC(=O)[C@H](CCN)NC(=O)[C@H](CC(C)C)NC(=O)[C@@H](Cc2ccccc2)NC(=O)[C@H](CCN)NC1=O)[C@@H](C)O,broth microdilution,"ATCC 13883, colistin-susceptible",,0.5 to 1 µg/mL
CCCCCC[N+](C)(C)CCCCCCOc1cc(OCCCCCC[N+](C)(C)CCCCCC)cc(OCCCCCC[N+](C)(C)CCCCCC)c1.[Br-].[Br-].[Br-],,ATCC 4352,,16 µM
CC(C)C[C@@H]1NC(=O)[C@@H](CC(C)C)NC(=O)[C@H](CCN)NC(=O)[C@@H](NC(=O)[C@H](CCN)NC(=O)[C@@H](NC(=O)CCCCN=[N+]=[N-])[C@@H](C)O)CCNC(=O)[C@H]([C@@H](C)O)NC(=O)[C@H](CCN)NC(=O)[C@H](CCN)NC1=O,broth microdilution,"ATCC 27736, cation-adjusted Mueller-Hinton broth","18 to 20 h, 37 °C, 0.002% polysorbate 80",8 µg/mL
CC1(C)[C@H](NC(=O)/C(=N\OCC(=O)N2CCC(C(=O)O)C2)c2nsc(N)n2)C(=O)N1OS(=O)(=O)O (stereo partly drawn),agar dilution,"16-14, ESBL-producing",,> 64 µg/mL
CCCCCCCCCC[N+](C)(C)CCCCCCCCOc1cc(OCCCCCCCC[N+](C)(C)CCCCCCCCCC)cc(OCCCCCCCC[N+](C)(C)CCCCCCCCCC)c1.[Br-].[Br-].[Br-],,ATCC 4352,,125 µM
C#CCNC(=O)C(C)(C)O/N=C(\C(=O)N[C@@H]1C(=O)N(S(=O)(=O)O)[C@H]1C)c1csc(N)n1,agar dilution,16-14 ESBL,,128 µg/mL
CN[C@H](CC(C)C)C(=O)N[C@H]1C(=O)N[C@@H](CC(N)=O)C(=O)N[C@H]2C(=O)N[C@H]3C(=O)N[C@H](C(=O)N[C@H](C(=O)O)c4cc(O)cc(O)c4-c4cc3ccc4O)[C@H](O)c3ccc(c(Cl)c3)Oc3cc2cc(c3O[C@@H]2O[C@H](CO)[C@@H](O)[C@H](O)[C@H]2O[C@H]2C[C@](C)(NCc3ccc(OCc4cn(CC(=O)N[C@H](C(=O)N[C@@H](CCN)C(=O)N[C@H]5CCNC(=O)[C@H]([C@@H](C)O)NC(=O)[C@H](CCN)NC(=O)[C@H](CCN)NC(=O)[C@H](CC(C)C)NC(=O)[C@@H](CC(C)C)NC(=O)[C@H](CCN)NC5=O)[C@@H](C)O)nn4)c(OC)c3)[C@H](O)[C@H](C)O2)Oc2ccc(cc2Cl)[C@H]1O,broth microdilution,"ATCC 13883, cation-adjusted Mueller-Hinton broth","18 to 20 h, 37 °C, 0.002% polysorbate 80",8 µg/mL
CC1(C)[C@H](NC(=O)/C(=N\OCc2c(Cl)cccc2Cl)c2nsc(N)n2)C(=O)N1OS(=O)(=O)O,agar dilution,"16-14, ESBL-producing",,8 µg/mL
c1ccc(CN2CCOCCOCCN(CCCCCCCCCCN3CCOCCOCCN(CCCCCCCCCCN4CCOCCOCCN(Cc5ccccc5)CCOCCOCC4)CCOCCOCC3)CCOCCOCC2)cc1,,ATCC BAA-2146,,56 µM
CC[C@H]1OC(=O)[C@H](C)C(=O)[C@H](C)[C@@H](O[C@@H]2O[C@H](C)C[C@H](N(C)C)[C@H]2O)[C@](C)(OC)C[C@@H](C)C(=O)[C@H](C)[C@H]2N(CCCCn3cnc(-c4cccnc4)c3)C(=O)O[C@]12C,microbial growth,ATCC700603,,> 32 µg/mL
CC(C)(O/N=C(\C(=O)N[C@@H]1C(=O)N(OS(=O)(=O)O)C1(C)C)c1nsc(N)n1)C(=O)O,agar dilution,"ATCC 700603, ESBL-producing",,> 64 µg/mL
CCCCCC[N+](C)(C)CCCCOc1cc(OCCCC[N+](C)(C)CCCCCC)cc(OCCCC[N+](C)(C)CCCCCC)c1.[Br-].[Br-].[Br-],,ATCC 4352,,> 250 µM
CC1(C)[C@H](NC(=O)/C(=N\OC2(C(=O)O)CC2)c2nsc(N)n2)C(=O)N1OS(=O)(=O)O,agar dilution,"16-14, ESBL-producing",,4 µg/mL
CCCCCC[N+](C)(C)CCCCCCCCCCOc1cc(OCCCCCCCCCC[N+](C)(C)CCCCCC)cc(OCCCCCCCCCC[N+](C)(C)CCCCCC)c1.[Br-].[Br-].[Br-],,ATCC 4352,,4 µM

# A few entries again:
Compound,test,test system,conditions,MIC
CCCCCCCCCCCCCCCCCCn1cc(CN(CCC(=O)NCCN(CCC(=O)NCCN(CCC(=O)NCCN(C)C)CCC(=O)NCCN(C)C)CCC(=O)NCCN(CCC(=O)NCCN(C)C)CCC(=O)NCCN(C)C)CCC(=O)NCCN(CCC(=O)NCCN(CCC(=O)NCCN(C)C)CCC(=O)NCCN(C)C)CCC(=O)NCCN(CCC(=O)NCCN(C)C)CCC(=O)NCCN(C)C)nn1,,"ATCC 43816, LB broth",18 h,> 96 µg/mL
CC(C)(O/N=C(\C(=O)N[C@@H]1C(=O)N(OS(=O)(=O)O)C1(C)C)c1nsc(N)n1)C(=O)O,agar dilution,"ATCC 700603, ESBL-producing",,> 64 µg/mL
